# Published values gathered from unrelated publications.
# A part holds a random share of what one study measured. Values joined by “and” are separate records of one study, mostly repeats; a detail may differ.
# UniProt O60674, sequence (whole entry, looked up): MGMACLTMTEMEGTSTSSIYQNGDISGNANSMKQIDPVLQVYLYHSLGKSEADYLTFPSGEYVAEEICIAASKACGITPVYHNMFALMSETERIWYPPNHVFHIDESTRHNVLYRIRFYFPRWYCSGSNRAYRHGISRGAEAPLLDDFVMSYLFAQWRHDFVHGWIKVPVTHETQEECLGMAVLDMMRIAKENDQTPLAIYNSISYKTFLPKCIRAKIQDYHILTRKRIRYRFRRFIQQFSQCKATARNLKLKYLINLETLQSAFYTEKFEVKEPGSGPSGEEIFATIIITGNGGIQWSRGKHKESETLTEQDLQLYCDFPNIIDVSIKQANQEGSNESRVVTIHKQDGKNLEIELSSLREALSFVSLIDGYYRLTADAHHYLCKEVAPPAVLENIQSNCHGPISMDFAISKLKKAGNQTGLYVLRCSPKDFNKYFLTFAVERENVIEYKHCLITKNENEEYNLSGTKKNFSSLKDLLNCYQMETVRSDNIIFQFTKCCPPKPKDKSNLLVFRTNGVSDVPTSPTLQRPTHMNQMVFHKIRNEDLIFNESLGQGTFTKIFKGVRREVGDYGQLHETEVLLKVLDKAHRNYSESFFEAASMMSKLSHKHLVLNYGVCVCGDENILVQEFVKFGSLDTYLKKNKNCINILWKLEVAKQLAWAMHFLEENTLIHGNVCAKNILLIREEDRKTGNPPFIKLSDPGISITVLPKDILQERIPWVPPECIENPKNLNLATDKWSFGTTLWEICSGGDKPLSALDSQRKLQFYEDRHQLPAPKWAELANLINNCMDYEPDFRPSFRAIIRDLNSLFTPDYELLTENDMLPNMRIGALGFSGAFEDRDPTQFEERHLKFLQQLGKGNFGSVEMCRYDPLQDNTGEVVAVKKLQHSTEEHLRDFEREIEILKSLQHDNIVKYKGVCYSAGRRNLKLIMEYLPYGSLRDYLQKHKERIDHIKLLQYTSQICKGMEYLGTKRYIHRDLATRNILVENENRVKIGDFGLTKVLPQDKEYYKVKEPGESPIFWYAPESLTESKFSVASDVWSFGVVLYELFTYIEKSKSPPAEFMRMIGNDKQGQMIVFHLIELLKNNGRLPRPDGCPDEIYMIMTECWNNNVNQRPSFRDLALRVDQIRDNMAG
# UniProt P37173, sequence (whole entry, looked up): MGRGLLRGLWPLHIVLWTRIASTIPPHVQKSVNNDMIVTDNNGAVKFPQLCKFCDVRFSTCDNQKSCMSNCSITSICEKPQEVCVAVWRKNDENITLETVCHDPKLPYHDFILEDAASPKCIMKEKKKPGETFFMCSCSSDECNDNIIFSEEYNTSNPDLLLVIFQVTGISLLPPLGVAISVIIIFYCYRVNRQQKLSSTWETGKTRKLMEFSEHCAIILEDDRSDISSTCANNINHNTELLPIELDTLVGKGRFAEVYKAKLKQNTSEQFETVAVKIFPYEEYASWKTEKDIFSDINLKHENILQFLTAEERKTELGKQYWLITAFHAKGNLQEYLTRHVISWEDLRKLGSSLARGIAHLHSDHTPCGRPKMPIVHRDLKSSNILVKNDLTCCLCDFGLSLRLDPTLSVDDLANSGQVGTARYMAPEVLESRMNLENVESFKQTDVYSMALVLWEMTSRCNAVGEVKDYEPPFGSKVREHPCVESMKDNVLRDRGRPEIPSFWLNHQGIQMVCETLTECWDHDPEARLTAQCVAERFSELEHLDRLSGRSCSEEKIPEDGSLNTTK
# UniProt Q15418, sequence (whole entry, looked up): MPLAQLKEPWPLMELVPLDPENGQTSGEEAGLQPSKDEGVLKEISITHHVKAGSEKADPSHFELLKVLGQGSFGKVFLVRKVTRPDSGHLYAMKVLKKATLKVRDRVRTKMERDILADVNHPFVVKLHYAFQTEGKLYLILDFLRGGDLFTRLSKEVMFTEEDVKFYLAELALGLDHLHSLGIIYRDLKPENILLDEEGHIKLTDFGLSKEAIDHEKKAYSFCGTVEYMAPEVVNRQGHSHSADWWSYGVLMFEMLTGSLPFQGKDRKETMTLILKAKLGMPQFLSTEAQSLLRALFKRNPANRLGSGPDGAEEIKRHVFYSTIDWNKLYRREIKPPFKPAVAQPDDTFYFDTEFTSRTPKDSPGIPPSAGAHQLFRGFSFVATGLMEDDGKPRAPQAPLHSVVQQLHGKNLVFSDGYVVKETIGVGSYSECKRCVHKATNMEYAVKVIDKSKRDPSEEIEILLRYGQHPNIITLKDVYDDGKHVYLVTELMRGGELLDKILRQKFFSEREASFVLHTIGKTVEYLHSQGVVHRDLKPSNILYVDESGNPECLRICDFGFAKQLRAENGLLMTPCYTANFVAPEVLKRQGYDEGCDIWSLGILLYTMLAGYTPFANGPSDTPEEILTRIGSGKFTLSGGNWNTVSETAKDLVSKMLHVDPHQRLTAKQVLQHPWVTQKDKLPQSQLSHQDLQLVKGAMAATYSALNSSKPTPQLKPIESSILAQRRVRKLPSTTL
# UniProt O15264, sequence (whole entry, looked up): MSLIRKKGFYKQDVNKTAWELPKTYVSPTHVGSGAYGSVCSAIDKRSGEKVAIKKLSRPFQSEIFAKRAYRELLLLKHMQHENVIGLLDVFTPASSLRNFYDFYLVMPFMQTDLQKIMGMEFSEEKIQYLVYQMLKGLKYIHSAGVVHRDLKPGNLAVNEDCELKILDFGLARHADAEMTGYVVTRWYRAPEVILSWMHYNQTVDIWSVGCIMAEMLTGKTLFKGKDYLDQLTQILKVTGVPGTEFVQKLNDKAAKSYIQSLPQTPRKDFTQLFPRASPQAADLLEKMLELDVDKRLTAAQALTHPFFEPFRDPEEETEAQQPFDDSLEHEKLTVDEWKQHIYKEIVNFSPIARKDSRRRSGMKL
# UniProt Q9H093, sequence (whole entry, looked up): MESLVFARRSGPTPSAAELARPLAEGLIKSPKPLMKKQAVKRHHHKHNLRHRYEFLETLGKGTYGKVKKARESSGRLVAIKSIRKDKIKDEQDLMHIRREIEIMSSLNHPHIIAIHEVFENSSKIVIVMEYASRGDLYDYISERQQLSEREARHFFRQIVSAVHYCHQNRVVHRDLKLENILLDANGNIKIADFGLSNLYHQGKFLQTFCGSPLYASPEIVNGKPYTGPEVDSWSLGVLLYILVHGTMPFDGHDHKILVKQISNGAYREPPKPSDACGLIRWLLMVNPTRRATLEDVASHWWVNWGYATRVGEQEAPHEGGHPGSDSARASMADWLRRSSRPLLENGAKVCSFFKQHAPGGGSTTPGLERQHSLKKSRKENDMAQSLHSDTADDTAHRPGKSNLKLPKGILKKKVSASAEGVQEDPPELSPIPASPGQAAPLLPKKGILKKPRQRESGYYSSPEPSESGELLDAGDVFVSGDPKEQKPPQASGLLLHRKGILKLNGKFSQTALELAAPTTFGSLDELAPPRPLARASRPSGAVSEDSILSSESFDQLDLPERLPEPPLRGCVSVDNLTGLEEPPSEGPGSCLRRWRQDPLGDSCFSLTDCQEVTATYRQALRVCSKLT

# Set 1 — observed: cell-free assay; method: competition with immobilised ligand; concentration: 1 µM
# SMILES: Cc1cc(-n2nc(Cc3cc(F)cc(C(F)(F)F)c3)nc2C)ccc1C(N)=O
target,remaining binding [%]
"Ribosomal protein S6 kinase alpha-1, C-terminal kinase domain (RPS6KA1, Homo sapiens, UniProt Q15418)",100
"ERBB2 (Homo sapiens, UniProt P04626)",99
"TGFBR2 (Homo sapiens, UniProt P37173)",100
"MAPK13 (Homo sapiens, UniProt O15264)",100
"NUAK2 (Homo sapiens, UniProt Q9H093)",100
"Tyrosine-protein kinase JAK2, JH1 (JAK2, Homo sapiens, UniProt O60674)",100

# Set 2 — host: human; matrix: microsomes or S9; concentration: 2 µM; time: 0.5 h
Structure (SMILES),remaining compound [%]
CCOC(=O)c1cnc2nc(C3CCC3)nn2c1C,5.83
CN(C)S(=O)(=O)c1ccc(C(=O)Nc2ccncc2)o1,80.1
CC(Nc1ccc2cc[nH]c2n1)c1cn2ccsc2n1 (stereo not shown),60.4

# Set 3 — cell line: A-375; concentration: 100 µM; time: 18 h
SMILES,viability
N[C@@H](Cc1cc(I)c(Oc2ccc(O)c(I)c2)c(I)c1)C(=O)O,64%
CO[C@H]1/C=C/O[C@@]2(C)Oc3c(C)c(O)c4c(c3C2=O)C2=NC3(CCN(CC(C)C)CC3)NC2=C(NC(=O)/C(C)=C\C=C\[C@H](C)[C@H](O)[C@@H](C)[C@@H](O)[C@@H](C)[C@H](OC(C)=O)[C@@H]1C)C4=O,51.5%
CC(CN(C)C)CN1c2ccccc2Sc2ccccc21 (stereo not shown),8.64%
Cc1ccc([C@@H]2O[C@H](CO)[C@@H](O)[C@H](O)[C@H]2O)cc1Cc1ccc(-c2ccc(F)cc2)s1,9.71%
COc1ccc2cccc(CCNC(C)=O)c2c1,112%
CCC1(C)CC(=O)NC1=O (stereo not shown),95.2%
CC(C)(C)C(=O)C(Oc1ccc(Cl)cc1)n1ccnc1 (stereo not shown),22.1%

# Set 4 — observed: enzyme activity; mode: inhibitor; concentration: 0.5 µM; relative to: control
# Target: Lymphokine-activated killer T-cell-originated protein kinase (PBK, Homo sapiens, UniProt Q96KB5)
# Target sequence (Q96KB5 1-322): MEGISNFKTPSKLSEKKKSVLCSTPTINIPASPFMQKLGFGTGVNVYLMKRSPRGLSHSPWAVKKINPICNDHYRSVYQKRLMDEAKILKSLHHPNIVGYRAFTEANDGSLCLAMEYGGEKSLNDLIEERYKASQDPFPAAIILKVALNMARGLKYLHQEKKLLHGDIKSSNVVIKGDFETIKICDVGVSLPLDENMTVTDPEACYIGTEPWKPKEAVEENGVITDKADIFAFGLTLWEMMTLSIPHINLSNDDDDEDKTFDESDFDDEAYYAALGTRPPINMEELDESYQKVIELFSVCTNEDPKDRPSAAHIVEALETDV
SMILES,remaining activity
NCCNc1ncc(C(N)=O)c(Nc2cccc(C(F)(F)F)c2)n1,66.4%
Oc1ccc(-c2nc(-c3ccncc3)c(-c3ccc(F)cc3)[nH]2)cc1,100%
O=C(Nc1cccc(Nc2cc(Nc3cccc(C(F)(F)F)c3)ncn2)c1)C1CC1,103%
O=C(CCCc1ccc(-c2ccccc2F)cc1)Nc1ccc(O)cc1,90.8%
Nc1ccc2ncnc(NCCc3ccc(Oc4ccccc4)cc3)c2c1,98.2%
Cn1sc(=O)n(Cc2ccccc2)c1=O,107%
CNC(=O)c1cc(Oc2ccc(NC(=O)Nc3ccc(Cl)c(C(F)(F)F)c3)cc2)ccn1,97.5%
Cc1cccc(-c2[nH]c(C(C)(C)C)nc2-c2ccc3c(c2)OCO3)n1,103%
O=C1NC(=O)C(c2cn(CCCO)c3ncccc23)=C1c1cnccn1,94.9%
CCOC(=O)c1c(C)[nH]c(/C=C2\C(=O)Nc3ccccc32)c1C,85%
COc1ccc(OC)c2c(=S)c3ccccc3[nH]c12,107%
COc1cc2ncnc(Nc3ccc(F)c(Cl)c3)c2cc1OCCCN1CCOCC1,102%
O=S(=O)(c1cccc2cnccc12)N1CCCNCC1,100%
N#CC(C#N)=C(N)/C(C#N)=C/c1ccc(O)cc1,96.4%
CO[C@H]1C[C@@H]2CC[C@@H](C)[C@@](O)(O2)C(=O)C(=O)N2CCCC[C@H]2C(=O)O[C@H]([C@H](C)C[C@@H]2CC[C@@H](O)[C@H](OC)C2)CC(=O)[C@H](C)/C=C(\C)[C@@H](O)[C@@H](OC)C(=O)[C@H](C)C[C@H](C)/C=C/C=C/C=C/1C,103%
CC(C)[C@H](CO)Nc1nc(Nc2cc(N)cc(Cl)c2)c2ncn(C(C)C)c2n1,75.6%

# Single results of other studies
SMILES,test,test system,conditions,scale,endpoint,value
CC(=O)N[C@@H](Cc1c[nH]c2ccccc12)C(=O)N[C@@H](CCC(=O)C=[N+]=[N-])C(=O)OC(C)C,UPLC-MS/MS,"EL4 tumor, C57BL/6 CES1-/- mice, tumor","subcutaneous, 0.3 mg/kg DON equivalent daily, 5 days",higher = more metabolite,sucrose level,516000 a.u. and 191000 a.u. and 76100 a.u. and 366000 a.u. and 239000 a.u. and 291000 a.u.
CC(C)n1cnc(-c2ccc(F)cc2)c1-c1ncc(C(=O)Nc2ccc(N3CCN(C)CC3)cc2)[nH]1,,IPF patients,"30 mg once daily, adverse event",,Dyspnoea incidence,0%

# For quick reference, copied from above (set 4):
SMILES,remaining activity
NCCNc1ncc(C(N)=O)c(Nc2cccc(C(F)(F)F)c2)n1,66.4%
Oc1ccc(-c2nc(-c3ccncc3)c(-c3ccc(F)cc3)[nH]2)cc1,100%
O=C(Nc1cccc(Nc2cc(Nc3cccc(C(F)(F)F)c3)ncn2)c1)C1CC1,103%
O=C(CCCc1ccc(-c2ccccc2F)cc1)Nc1ccc(O)cc1,90.8%
